# Results collected from several papers.
# Parts stem from different laboratories: compare values within a part only.
# Chain of UniProt Q6PHR2 (whole entry, looked up): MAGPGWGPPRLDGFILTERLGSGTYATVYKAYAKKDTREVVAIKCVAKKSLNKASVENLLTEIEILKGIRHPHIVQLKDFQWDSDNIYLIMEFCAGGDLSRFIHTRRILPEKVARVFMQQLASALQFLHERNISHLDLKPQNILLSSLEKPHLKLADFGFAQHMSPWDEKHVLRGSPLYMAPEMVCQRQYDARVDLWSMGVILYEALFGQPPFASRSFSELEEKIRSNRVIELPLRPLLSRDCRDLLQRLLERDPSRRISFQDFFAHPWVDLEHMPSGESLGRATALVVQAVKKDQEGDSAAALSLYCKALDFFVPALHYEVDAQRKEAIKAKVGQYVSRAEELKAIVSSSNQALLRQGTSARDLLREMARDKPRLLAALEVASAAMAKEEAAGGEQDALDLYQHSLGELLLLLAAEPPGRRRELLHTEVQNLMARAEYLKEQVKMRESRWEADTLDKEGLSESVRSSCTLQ
# Chain of UniProt Q96D53 (whole entry, looked up): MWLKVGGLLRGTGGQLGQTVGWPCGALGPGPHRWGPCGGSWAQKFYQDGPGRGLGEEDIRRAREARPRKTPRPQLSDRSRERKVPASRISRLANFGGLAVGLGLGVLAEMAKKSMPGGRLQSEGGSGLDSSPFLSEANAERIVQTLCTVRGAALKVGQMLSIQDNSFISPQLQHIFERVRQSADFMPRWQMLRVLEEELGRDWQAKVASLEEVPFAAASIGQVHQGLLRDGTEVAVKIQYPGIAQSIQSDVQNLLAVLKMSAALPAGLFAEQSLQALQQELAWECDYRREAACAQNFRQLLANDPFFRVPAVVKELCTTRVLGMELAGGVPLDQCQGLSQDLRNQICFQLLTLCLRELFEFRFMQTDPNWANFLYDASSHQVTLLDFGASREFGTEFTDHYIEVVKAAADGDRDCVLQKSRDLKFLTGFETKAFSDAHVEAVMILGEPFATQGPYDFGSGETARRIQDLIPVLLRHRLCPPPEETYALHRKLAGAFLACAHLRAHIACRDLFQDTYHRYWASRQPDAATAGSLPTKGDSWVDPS
# Chain of UniProt Q13554 (whole entry, looked up): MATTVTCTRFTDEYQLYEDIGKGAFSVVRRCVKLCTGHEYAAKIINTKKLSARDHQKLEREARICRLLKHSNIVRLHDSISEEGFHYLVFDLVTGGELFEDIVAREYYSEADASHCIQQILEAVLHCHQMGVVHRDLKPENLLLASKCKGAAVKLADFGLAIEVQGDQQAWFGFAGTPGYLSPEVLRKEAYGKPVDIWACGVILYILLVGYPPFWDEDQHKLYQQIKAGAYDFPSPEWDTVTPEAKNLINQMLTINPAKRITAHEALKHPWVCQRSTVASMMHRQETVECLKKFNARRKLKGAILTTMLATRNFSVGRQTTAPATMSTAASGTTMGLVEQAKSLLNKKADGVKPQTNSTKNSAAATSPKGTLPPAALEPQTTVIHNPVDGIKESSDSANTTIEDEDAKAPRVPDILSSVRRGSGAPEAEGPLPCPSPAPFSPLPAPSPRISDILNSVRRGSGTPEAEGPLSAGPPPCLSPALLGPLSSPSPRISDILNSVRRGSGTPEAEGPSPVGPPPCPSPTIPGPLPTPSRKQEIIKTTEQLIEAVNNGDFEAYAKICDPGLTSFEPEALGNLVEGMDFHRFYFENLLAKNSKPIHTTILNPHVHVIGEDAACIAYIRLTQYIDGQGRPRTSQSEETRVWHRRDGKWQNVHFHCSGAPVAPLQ
# Chain of UniProt Q9BYP7 (whole entry, looked up): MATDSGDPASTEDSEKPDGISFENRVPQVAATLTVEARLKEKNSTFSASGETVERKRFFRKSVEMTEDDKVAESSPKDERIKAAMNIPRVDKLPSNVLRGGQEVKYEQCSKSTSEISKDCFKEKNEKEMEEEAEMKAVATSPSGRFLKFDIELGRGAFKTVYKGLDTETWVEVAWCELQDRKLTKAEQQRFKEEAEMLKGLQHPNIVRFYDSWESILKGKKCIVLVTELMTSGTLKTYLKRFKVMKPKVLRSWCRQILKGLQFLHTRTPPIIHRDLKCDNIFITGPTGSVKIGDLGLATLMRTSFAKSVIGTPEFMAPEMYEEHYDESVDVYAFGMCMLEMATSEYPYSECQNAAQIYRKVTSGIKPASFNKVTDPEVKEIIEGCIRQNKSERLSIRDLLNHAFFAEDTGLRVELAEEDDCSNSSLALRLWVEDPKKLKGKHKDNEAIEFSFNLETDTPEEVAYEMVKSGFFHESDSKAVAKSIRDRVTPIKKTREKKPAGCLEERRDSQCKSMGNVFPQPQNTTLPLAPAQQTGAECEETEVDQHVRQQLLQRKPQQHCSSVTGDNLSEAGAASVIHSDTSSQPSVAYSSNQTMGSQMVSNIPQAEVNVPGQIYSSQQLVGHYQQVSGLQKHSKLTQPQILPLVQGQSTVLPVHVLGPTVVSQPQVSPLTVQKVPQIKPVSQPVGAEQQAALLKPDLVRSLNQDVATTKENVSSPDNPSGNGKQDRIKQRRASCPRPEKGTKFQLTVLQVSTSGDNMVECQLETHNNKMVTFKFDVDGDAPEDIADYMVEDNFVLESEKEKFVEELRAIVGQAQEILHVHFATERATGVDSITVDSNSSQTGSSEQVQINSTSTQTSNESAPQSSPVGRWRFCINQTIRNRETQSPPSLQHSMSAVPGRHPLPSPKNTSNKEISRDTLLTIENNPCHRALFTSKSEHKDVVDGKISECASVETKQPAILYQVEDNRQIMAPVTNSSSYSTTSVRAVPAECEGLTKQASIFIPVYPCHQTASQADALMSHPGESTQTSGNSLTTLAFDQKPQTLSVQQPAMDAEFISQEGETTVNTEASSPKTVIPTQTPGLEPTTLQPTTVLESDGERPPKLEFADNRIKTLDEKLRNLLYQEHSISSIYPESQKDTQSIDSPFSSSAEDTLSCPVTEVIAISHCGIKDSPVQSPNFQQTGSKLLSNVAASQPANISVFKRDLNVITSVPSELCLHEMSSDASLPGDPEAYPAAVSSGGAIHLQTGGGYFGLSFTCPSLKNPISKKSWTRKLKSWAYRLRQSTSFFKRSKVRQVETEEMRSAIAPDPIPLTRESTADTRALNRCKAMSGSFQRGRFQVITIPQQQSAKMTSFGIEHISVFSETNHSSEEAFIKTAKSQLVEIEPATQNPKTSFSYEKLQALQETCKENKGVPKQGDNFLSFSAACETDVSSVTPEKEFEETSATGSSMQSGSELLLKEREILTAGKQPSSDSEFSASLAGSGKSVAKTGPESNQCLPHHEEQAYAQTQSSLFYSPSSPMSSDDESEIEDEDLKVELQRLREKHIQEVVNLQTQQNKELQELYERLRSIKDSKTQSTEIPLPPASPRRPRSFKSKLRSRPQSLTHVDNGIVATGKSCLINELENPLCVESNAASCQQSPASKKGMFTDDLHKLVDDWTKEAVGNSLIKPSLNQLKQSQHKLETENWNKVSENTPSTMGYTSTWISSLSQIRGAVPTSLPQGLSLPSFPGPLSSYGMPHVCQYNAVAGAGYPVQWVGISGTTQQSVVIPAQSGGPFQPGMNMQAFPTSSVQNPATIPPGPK
# Chain of UniProt P36507 (whole entry, looked up): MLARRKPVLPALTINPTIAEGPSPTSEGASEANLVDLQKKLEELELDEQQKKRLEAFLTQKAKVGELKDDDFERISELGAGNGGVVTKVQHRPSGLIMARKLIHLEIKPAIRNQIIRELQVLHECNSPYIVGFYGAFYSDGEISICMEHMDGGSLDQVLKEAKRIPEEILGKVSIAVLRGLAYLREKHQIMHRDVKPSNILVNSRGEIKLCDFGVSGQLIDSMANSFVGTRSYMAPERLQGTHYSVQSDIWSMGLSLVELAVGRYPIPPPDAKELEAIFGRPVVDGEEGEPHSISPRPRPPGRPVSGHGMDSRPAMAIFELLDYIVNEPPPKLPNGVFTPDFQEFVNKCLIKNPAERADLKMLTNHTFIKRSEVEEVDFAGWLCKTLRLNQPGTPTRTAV

# Set 1
# Organism: Plasmodium berghei
# Mode: inhibitor
# Cells: Huh-7
# Strain: liver stage
# Tested at: 10 µM
# Time: 24 h
# Relative to: untreated control
SMILES,infection rate [%]
C[C@](N)(Cc1ccc(O)cc1)C(=O)O,96.1
CN(Cc1cnc2nc(N)nc(N)c2n1)c1ccc(C(=O)NC(CCC(=O)O)C(=O)O)cc1 (racemic),30.3
CO[C@@]12[C@H](COC(N)=O)C3=C(C(=O)C(C)=C(N)C3=O)N1C[C@@H]1N[C@@H]12,13.1
O=c1[nH]c(=O)n([C@H]2C[C@H](O)[C@@H](CO)O2)cc1F,43.8
C=C1C[C@H]2[C@@H]3C=C(C)C4=CC(=O)CC[C@]4(C)[C@H]3CC[C@]2(C)[C@@]1(OC(C)=O)C(C)=O,73.7
Cc1ccc(C)c(OCCCC(C)(C)C(=O)O)c1,122

# Set 2
# SMILES: O=C(N1CCS(=O)(=O)CC1)N1C[C@H](c2ccc(OC(F)(F)F)cc2)C[C@H](c2nc(C3CC3)no2)C1
# Read-out: cell-free assay
# Technique: competition with immobilised ligand
# Tested at: 1 µM
target,remaining binding
"COQ8B (Homo sapiens, UniProt Q96D53)",73%
"MAP2K2 (Homo sapiens, UniProt P36507)",100%
"ULK3 (Homo sapiens, UniProt Q6PHR2)",93%
"CAMK2B (Homo sapiens, UniProt Q13554)",100%
"WNK3 (Homo sapiens, UniProt Q9BYP7)",99%

# Set 3
# Host: mouse
# Sample: microsomes or S9
# Tested at: 2 µM
# Time: 0.5 h
Structure (SMILES),remaining compound
CC(C)(C)OC(=O)N1CCC(n2cc(-c3cnc(N)c(-c4nc5ccccc5o4)c3)c3ccccc32)CC1,> 100%
CCOc1ccc(-c2[nH]c3[nH]c(=O)[nH]c(=O)c3c2-c2ccc(OC)cc2)cc1OC,74.3%
CN(C)c1ccc2oc(-c3cc(-c4cnn(C5CCNCC5)c4)cnc3N)nc2c1,78.1%
CCCc1cc(NC(=O)c2ccccc2-n2ccnn2)n[nH]1,> 100%
COc1ccc(-c2ccnc3cc(C4CCCCC4)nn23)cc1OC1CCCC1,13.5%
Clc1cccnc1N1CCCC(Cn2ccnc2)C1 (stereo not drawn),69.7%

# Set 4
# Target: G protein-coupled receptor kinase 4 (GRK4, Homo sapiens, UniProt P32298)
# Chain of UniProt P32298 (whole entry, looked up): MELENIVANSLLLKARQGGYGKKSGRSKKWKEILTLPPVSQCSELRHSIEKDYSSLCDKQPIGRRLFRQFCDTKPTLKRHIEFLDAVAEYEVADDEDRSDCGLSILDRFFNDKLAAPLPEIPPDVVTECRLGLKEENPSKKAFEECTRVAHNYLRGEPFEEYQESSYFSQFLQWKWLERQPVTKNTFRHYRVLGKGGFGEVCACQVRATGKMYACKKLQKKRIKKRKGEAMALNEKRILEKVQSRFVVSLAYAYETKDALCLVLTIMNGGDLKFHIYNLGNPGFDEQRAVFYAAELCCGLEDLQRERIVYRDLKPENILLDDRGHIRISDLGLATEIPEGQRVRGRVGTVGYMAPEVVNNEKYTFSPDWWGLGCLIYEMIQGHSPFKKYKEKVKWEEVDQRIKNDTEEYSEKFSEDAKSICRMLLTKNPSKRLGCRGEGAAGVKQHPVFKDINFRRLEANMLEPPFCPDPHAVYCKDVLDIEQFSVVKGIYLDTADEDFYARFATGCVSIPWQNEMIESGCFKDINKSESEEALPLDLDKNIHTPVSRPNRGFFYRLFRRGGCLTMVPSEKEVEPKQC
# Read-out: enzyme activity
# Mode: inhibitor
# Tested at: 0.5 µM
# Relative to: control
SMILES,remaining activity
Cn1nc2c3c(cccc31)C(=O)c1ccccc1-2,105%
COc1cc2c(cc1OC)-c1[nH]nc(Nc3cccc(F)c3)c1C2,97.1%
CCOc1nc(NC(=O)Cc2cc(OC)ccc2OC)cc(N)c1C#N,99.8%
COc1cc2ncnc(Nc3ccc(O)c(Br)c3)c2cc1OC,105%
Ic1cccc(CSc2nnc(-c3ccncc3)o2)c1,99.8%
c1ccc(-c2cnc(Nc3ccc(OCCN4CCCC4)cc3)s2)cc1,98.3%
CCN(CC)C(=O)c1ccc(Nc2nc(OCC3CCCCC3)c3[nH]cnc3n2)cc1,93%
CN([C@@H](Cc1ccc(OS(=O)(=O)c2cccc3cnccc23)cc1)C(=O)N1CCN(c2ccccc2)CC1)S(=O)(=O)c1cccc2cnccc12,96.5%
Cc1cn(-c2cc(NC(=O)c3ccc(C)c(Nc4nccc(-c5cccnc5)n4)c3)cc(C(F)(F)F)c2)cn1,89.2%
O=c1cc(-c2cccc3c2Sc2ccccc2S3)oc(N2CCOCC2)c1,105%
CCN(CC)CCNC(=O)c1c(C)[nH]c(/C=C2\C(=O)Nc3ccc(Cl)cc32)c1C,80.8%
c1ccc(-c2[nH]ncc2-c2ccnc3ccccc23)nc1,94.3%
N#C/C(=C\c1ccc(O)c(O)c1)C(=O)NCc1ccccc1,101%
